Assay results gathered from unrelated publications.
Protocols differ between the studies behind these lines. ± gives the spread as reported.
Cell line: MCF7

`C=CCc1ccc(OCc2nnc(SCC(=O)Nc3ccccc3C(=O)OC)o2)c(OC)c1` has an IC50 of 45 µM (cell growth or viability, MTT; 72 h).
With `COc1c(O)c(Br)c2oc3c(Br)c(O)c(CC=C(C)C)c(O)c3c(=O)c2c1CC=C(C)C` the IC50 was 16 µM (cell growth or viability; 48 h).
The IC50 of `Cc1cc(N2CCN(C(=O)CN3CCN(C)CC3)CC2)n2ncnc2n1` is reported as 56 µM (cell growth or viability, MTT).
With `CC1=CC(c2ccccc2)=[O+][Pt-2]([NH3+])([NH3+])[O]1.O=[N+]([O-])[O-]` (stereo not shown) the IC50 was 33 µM (cell growth or viability, MTT).
With `Cc1ccc(NC(=O)N/N=C2\CC3(CCN(C)CC3)Oc3ccccc32)cc1` the IC50 was 21.4 µM (cell growth or viability, MTT; 48 h).
For `C=C(C)[C@H]1CC[C@@]2(C)CC[C@]3(C)C[C@H]4[C@@H](C)C[C@@]5(O)OC(=O)/C(=C/C[C@H]3[C@H]12)[C@@H]45`, the IC50 was 22 µM (cell growth or viability, MTT; 72 h).
The IC50 of `CCOc1cccc2c1[O][Pt-2]1([Cl])[N+](=C2)CC[NH+]1c1ccccc1` (stereo not shown) is reported as 39 µM (cell growth or viability, MTT).
With `COc1cccc2cc(C(=O)NNc3nc(-c4ccccc4)cs3)c(=O)oc12` the IC50 was 187 µM (cell growth or viability, SRB; 72 h).
For `NS(=O)(=O)c1ccc(/N=N/c2ccc(O)c(C=O)c2)cc1`, the IC50 was 9.15 µM (cell growth or viability, MTT; 72 h).
For `CCCCCCCCCCCCCCCCCCOc1c(O)cc(C(=O)O[C@@H]2Cc3c(O)cc(O)cc3O[C@@H]2c2cc(O)c(O)c(O)c2)cc1O`, the IC50 was 134 µM (cell growth or viability, CCK-8; 24 h).
With `C[n+]1ccn(CC(O)c2ccccc2)[c]1[Ag-][I]` (stereo not shown) the IC50 was 36.2 µM (cell growth or viability, MTT; 72 h).
`CCCCCCCCCCCCCCCOC(=O)/C=C/c1ccc(O)c(O)c1` gave an IC50 of 1.3 ± 0.1 µg/mL (cell viability, MTT; 48 h, serum-free medium).
For `CC(=O)OC[C@H]1O[C@@H](Sc2nc3c4cnn(C(=O)CNc5ccc(C)cc5)c4ncn3n2)[C@H](OC(C)=O)[C@@H](OC(C)=O)[C@H]1OC(C)=O`, the IC50 was 0.046 µM (cell growth or viability, MTT; 48 h).
`O=C(CSc1nnc(-c2ccccc2)o1)N1CCC(=C2c3ncccc3CCc3cc(Cl)cc(Br)c32)CC1` gave an IC50 of greater than 120 µM (cell growth or viability, SRB).
For `CC(=O)[O][Pt]([Cl])([Cl])[O]C(C)=O.N.N`, the IC50 was 39.5 ± 4.45 µM (cytotoxicity; 72 h).
`C[C@@H]1CC[C@@H]([C@](O)(CNCc2ccc(F)cc2)COCc2ccccc2)[C@H](OCc2ccccc2)C1` has an IC50 of 10.4 µM (cell growth or viability, MTT; 72 h).
`CCCCCCCCCCCCCCCCn1c(-c2cccnc2)nc(-c2ccc(C)cc2)c1-c1ccc(C)cc1` has an IC50 of greater than 100 µM (cell growth or viability, SRB; 24 h).
`CC(=O)OC[C@H]1O[C@@H](n2nc(-c3cc4ccccc4[nH]3)n(-c3ccccc3)c2=S)[C@H](OC(C)=O)[C@@H](OC(C)=O)[C@@H]1OC(C)=O` gave an IC50 of 11.2 µM (cell growth or viability, MTT).
The IC50 of `CCC(C(=O)O)C1CCC(C)C(C(C)C(O)C(C)C(=O)C(CC)C2OC3(C=CC(NCc4cn(CCCCSC(C)=O)nn4)C4(CCC(C)(C5CCC(O)(CC)C(C)O5)O4)O3)C(C)CC2C)O1` (stereo not shown) is reported as 3.02 µM (cell growth or viability, resazurin; 72 h).
The IC50 of `O=C(c1ccc2ccccc2c1)c1cn(-c2ccccc2)nc1C1=Nn2c(CCc3nnc4n3N=C(c3nn(-c5ccccc5)cc3C(=O)c3ccc5ccccc5c3)CS4)nnc2SC1` is reported as 32.4 µM (cell growth or viability, MTT; 48 h).
`N=C(N)NCCC[C@H](N)C(=O)NC(CC(=O)N[C@@H](Cc1c[nH]c2ccccc12)C(=O)O)c1ccc2ccccc2c1` (stereo partly shown) has an IC50 of greater than 100 µM (cell growth or viability, ATP luminescence; 72 h).
The IC50 of `CSc1ccc(-c2noc(-c3cccs3)c2C(F)(F)F)cc1` is reported as 22.4 µM (cell growth or viability, MTT; 48 h).
With `CN(C)C(=O)C1CN1S(=O)(=O)c1cccc2cc(N(C)C)ccc12` (stereo not shown) the IC50 was 4.8 µM (cell growth or viability, MTT; 48 h).
The IC50 of `CC(=O)[O-].O.[Cu+2].[O-]c1ccc(Br)cc1C=NCCN1CCOCC1` is reported as 20.5 µg/mL (cell viability, MTT; 72 h).
The IC50 of `COc1ccc(COC[C@](O)(CNCc2ccccc2)[C@@H]2CC[C@@H](C)C[C@H]2OCc2ccc(OC)cc2)cc1` is reported as 1.5 µM (cell growth or viability, MTT; 72 h).
For `CC(C)CCc1c(O)cc2oc3cc(O)c(O)c(CCC(C)C)c3c(=O)c2c1O`, the IC50 was 12.3 µM (cell growth or viability; 48 h).
With `Cc1c(C)c(C)c(C[n+]2cn(CC(C)(C)c3ccccc3)c3ccccc32)c(C)c1C` the IC50 was 28 µM (cell growth or viability, MTT; 48 h).
With `O=[C]=[Re-2]1(=[C]=O)(=[C]=O)([O]C(=O)c2ccccc2Nc2cccc(C(F)(F)F)c2)[n+]2ccc(-c3ccccc3)c3ccc4c(-c5ccccc5)cc[n+]1c4c32` the IC50 was 2.75 µM (cell growth or viability, resazurin; 72 h).
With `CCCCCCCCCCCCCCCOC(=O)/C=C/c1cc(O)c(O)c(OC)c1` the IC50 was 1.2 ± 0.2 µg/mL (cell viability, MTT; 48 h, serum-free medium).
With `COc1cc(OC)c(C(C)=O)c(OC)c1` the IC50 was 76.3 µM (cell growth or viability, MTT; 48 h).
`C/C(=N\N=C1/NC(=O)CS1)c1c(O)c2ccccc2oc1=O` gave an IC50 of 26.3 ± 4.1 µM (cell growth, MTT; 48 h).
For `CSc1nc(Nc2cccc(/C(C)=N/NC(=O)c3ccc(O)cc3)c2)c(C#N)c(-c2ccccc2)n1`, the IC50 was 26.1 µM (cell growth or viability, MTT; 48 h).
`CSC(=NN=C(C)c1ccc(S(=O)(=O)N2CCC(C)CC2)cc1)N(C)C` has an IC50 of 4.31 µM (cell growth or viability, MTT).
`COc1ccc(CN2C(=O)C(=O)c3cc(NC(C)=O)ccc32)cc1` gave an IC50 of 3.37 µM (cell growth or viability, MTT; 48 h).
`NS(=O)(=O)c1ccc(/N=N/c2ccc(O)c(/C=N/CCc3c[nH]c4ccccc34)c2)cc1` gave an IC50 of 9.02 µM (cell growth or viability, MTT; 48 h).
The IC50 of `CC(C)=CCC1=C([O-])C(=O)c2ccccc2C1=O.O=[N+]([O-])[O-].[Cu+2].c1ccc(-c2cccc(-c3ccccn3)n2)nc1` is reported as 39.2 ± 4.3 µM (cell viability, MTT; 24 h).
With `C[C@]12CC/C(=N\O)C=C1CCC1C2CC[C@]2(C)/C(=C/c3ccccn3)CCC12` (stereo partly shown) the IC50 was 41 µM (cell growth or viability, MTT; 72 h).
With `Oc1ccc(Br)cc1C=NNC(=S)Nc1ccccc1` the IC50 was 0.41 µM (cell growth or viability, MTT; 72 h).
The IC50 of `Cc1nnc2c3c(-c4ccc5ccccc5n4)cc(-c4ccccc4)nc3n3c(C)nnc3n12` is reported as 7.5 µM (cell growth or viability, MTT; 48 h).
The IC50 of `COc1cc2c(=O)c(-c3ccc4c(c3)OCO4)coc2c2c1OC(C)(C)C=C2` is reported as 11.1 µM (cell growth or viability, MTT; 72 h).
`CC(C)=CCCC(C)(O)C1CCC2(C)C1C(O)CC1C3(C)CCC(OC4OC(COC(=O)CCCCCN5C(=O)C=CC5=O)C(O)C(OC(=O)CCCCCN5C(=O)C=CC5=O)C4O)C(C)(C)C3CCC12C` (stereo not shown) has an IC50 of 29.8 µM (cell growth or viability, MTT).
`CSC(=S)N/N=C(\C)c1ccc(S(=O)(=O)N2CCC(C)CC2)cc1` has an IC50 of 11.2 µM (cell growth or viability, MTT).
The IC50 of `COc1ccc2cc3[n+](cc2c1OCc1cn(Cc2cccc(Br)c2)nn1)CCc1cc2c(cc1-3)OCO2` is reported as 66.4 µM (cell growth or viability, MTT).
`CC1=NN(c2ccccc2)C(c2ccccc2)C1` (stereo not shown) has an IC50 of 7.5 µM (cell growth or viability, LDH).
`COc1cc(/C=C/c2cc(C)n[nH]2)ccc1O` gave an IC50 of 42 µM (cell growth or viability, MTT; 48 h).
`O=C(CCc1nc2cc(Cl)ccc2[nH]c1=O)Nc1ccc(O)cc1` has an IC50 of 3.95 µM (cell growth or viability, MTT).
The IC50 of `COc1ccc(-c2noc(NC(=O)c3cccc(C(F)(F)F)c3)c2C#N)c(OC)c1` is reported as no less than 100 µM (cell growth or viability, MTT; 72 h).
The IC50 of `Cc1ccc(-c2nc(-c3cccnc3)[nH]c2-c2ccc(C)cc2)cc1` is reported as greater than 100 µM (cell growth or viability, SRB; 48 h).
The IC50 of `O=C1/C(=C/c2ccc3c(c2)OCCO3)SC(=S)N1[C@@H]1O[C@H](CO)[C@@H](O)[C@H](O)[C@H]1O` is reported as 7.17 µM (cell growth or viability, MTT; 48 h).
`[Cl][Pd-2]1([Cl])[N+](=P(c2ccccc2)(c2ccccc2)C2C=CC=C2)Cc2cccc[n+]21.[Cl][Pd-2]1([Cl])[N+](=P(c2ccccc2)(c2ccccc2)C2C=CC=C2)Cc2cccc[n+]21.[Fe+2]` has an IC50 of 3 µM (cell growth or viability, MTT; 74 h).
`CCCCn1cc(C(=O)O)c(=O)c2cc(F)c(Nc3cccc(OC)c3)c(N)c21` gave an IC50 of 5.4 µg/mL (cell growth or viability, SRB; 72 h).
`CC(C)c1cccc(C(C)C)c1N1CCN(c2c(C(C)C)cccc2C(C)C)C1=[Se].[Cl][Au]` has an IC50 of 5.4 µM (cell growth or viability, MTT; 72 h).
For `COc1ccc2cc3[n+](cc2c1OCc1cn(Cc2c(F)cccc2F)nn1)CCc1cc2c(cc1-3)OCO2`, the IC50 was 174 µM (cell growth or viability, MTT).
`O=C(NCCNc1n[n+]([O-])c2ccccc2[n+]1[O-])C(F)(F)F` gave an IC50 of 29 ± 14 µM (cytotoxicity, MTT; 10% FBS medium; 6 h + 18 h, hypoxia 3% O2).
The IC50 of `Cn1[c]([Ir-3]234([NH3+])[n]5c6ccc5C(c5c(F)c(F)c(F)c(F)c5F)=C5C=CC(=[N+]52)C(c2c(F)c(F)c(F)c(F)c2F)=c2ccc([n]23)=C(c2c(F)c(F)c(F)c(F)c2F)C2=[N+]4C(=C6c3c(F)c(F)c(F)c(F)c3F)C=C2)[n+](C)c2ccccc21.F[P-](F)(F)(F)(F)F` is reported as 0.71 µM (cell growth or viability, MTT; 72 h).

Some of these lines once more:
With `Cc1c(C)c(C)c(C[n+]2cn(CC(C)(C)c3ccccc3)c3ccccc32)c(C)c1C` the IC50 was 28 µM (cell growth or viability, MTT; 48 h).
`CC1=NN(c2ccccc2)C(c2ccccc2)C1` (stereo not shown) has an IC50 of 7.5 µM (cell growth or viability, LDH).
With `COc1c(O)c(Br)c2oc3c(Br)c(O)c(CC=C(C)C)c(O)c3c(=O)c2c1CC=C(C)C` the IC50 was 16 µM (cell growth or viability; 48 h).
`O=C(CSc1nnc(-c2ccccc2)o1)N1CCC(=C2c3ncccc3CCc3cc(Cl)cc(Br)c32)CC1` gave an IC50 of greater than 120 µM (cell growth or viability, SRB).
The IC50 of `CCC(C(=O)O)C1CCC(C)C(C(C)C(O)C(C)C(=O)C(CC)C2OC3(C=CC(NCc4cn(CCCCSC(C)=O)nn4)C4(CCC(C)(C5CCC(O)(CC)C(C)O5)O4)O3)C(C)CC2C)O1` (stereo not shown) is reported as 3.02 µM (cell growth or viability, resazurin; 72 h).
The IC50 of `Cn1[c]([Ir-3]234([NH3+])[n]5c6ccc5C(c5c(F)c(F)c(F)c(F)c5F)=C5C=CC(=[N+]52)C(c2c(F)c(F)c(F)c(F)c2F)=c2ccc([n]23)=C(c2c(F)c(F)c(F)c(F)c2F)C2=[N+]4C(=C6c3c(F)c(F)c(F)c(F)c3F)C=C2)[n+](C)c2ccccc21.F[P-](F)(F)(F)(F)F` is reported as 0.71 µM (cell growth or viability, MTT; 72 h).
The IC50 of `Cc1cc(N2CCN(C(=O)CN3CCN(C)CC3)CC2)n2ncnc2n1` is reported as 56 µM (cell growth or viability, MTT).
`CC(C)=CCCC(C)(O)C1CCC2(C)C1C(O)CC1C3(C)CCC(OC4OC(COC(=O)CCCCCN5C(=O)C=CC5=O)C(O)C(OC(=O)CCCCCN5C(=O)C=CC5=O)C4O)C(C)(C)C3CCC12C` (stereo not shown) has an IC50 of 29.8 µM (cell growth or viability, MTT).
